{"data": "Measured values gathered from unrelated publications", "note": "Numbered parts are unrelated; each lists some results of a single study. “And” joins repeats or separate records; there may be more than shown.", "chain of UniProt Q13470 (whole entry, looked up)": "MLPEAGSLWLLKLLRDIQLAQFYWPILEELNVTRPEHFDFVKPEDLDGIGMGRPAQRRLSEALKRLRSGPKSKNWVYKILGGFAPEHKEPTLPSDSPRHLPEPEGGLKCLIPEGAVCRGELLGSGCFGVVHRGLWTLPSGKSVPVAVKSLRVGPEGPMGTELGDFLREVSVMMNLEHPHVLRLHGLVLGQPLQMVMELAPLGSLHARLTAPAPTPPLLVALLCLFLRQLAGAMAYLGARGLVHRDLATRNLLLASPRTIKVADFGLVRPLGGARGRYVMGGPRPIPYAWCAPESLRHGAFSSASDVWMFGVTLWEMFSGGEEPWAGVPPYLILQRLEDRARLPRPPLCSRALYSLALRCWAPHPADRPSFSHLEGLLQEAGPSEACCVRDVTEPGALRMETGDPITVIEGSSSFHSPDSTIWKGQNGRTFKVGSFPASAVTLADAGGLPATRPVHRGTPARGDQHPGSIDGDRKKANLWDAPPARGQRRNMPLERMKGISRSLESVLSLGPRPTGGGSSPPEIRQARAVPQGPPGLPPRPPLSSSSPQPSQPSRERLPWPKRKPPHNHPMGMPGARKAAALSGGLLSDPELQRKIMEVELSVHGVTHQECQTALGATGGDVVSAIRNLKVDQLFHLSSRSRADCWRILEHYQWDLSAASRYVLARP", "chain of UniProt Q9UQB9 (whole entry, looked up)": "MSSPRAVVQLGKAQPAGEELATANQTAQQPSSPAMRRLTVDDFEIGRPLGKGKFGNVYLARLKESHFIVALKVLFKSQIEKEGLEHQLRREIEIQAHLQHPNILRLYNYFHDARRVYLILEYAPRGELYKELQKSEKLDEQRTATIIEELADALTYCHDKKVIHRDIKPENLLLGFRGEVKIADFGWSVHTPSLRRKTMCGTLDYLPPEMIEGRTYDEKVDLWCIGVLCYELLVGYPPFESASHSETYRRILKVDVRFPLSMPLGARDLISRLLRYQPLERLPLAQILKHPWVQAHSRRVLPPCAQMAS", "chain of UniProt Q8N752 (whole entry, looked up)": "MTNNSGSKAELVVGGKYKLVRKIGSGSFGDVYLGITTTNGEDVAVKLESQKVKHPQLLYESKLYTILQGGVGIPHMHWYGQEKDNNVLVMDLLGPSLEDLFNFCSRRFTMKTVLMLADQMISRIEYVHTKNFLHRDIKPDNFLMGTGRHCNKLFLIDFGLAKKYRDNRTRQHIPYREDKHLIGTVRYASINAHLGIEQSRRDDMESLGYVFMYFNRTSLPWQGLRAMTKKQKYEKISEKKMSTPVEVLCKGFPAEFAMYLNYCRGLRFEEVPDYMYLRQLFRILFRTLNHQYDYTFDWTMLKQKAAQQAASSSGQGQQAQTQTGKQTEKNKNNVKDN", "chain of UniProt O43353 (whole entry, looked up)": "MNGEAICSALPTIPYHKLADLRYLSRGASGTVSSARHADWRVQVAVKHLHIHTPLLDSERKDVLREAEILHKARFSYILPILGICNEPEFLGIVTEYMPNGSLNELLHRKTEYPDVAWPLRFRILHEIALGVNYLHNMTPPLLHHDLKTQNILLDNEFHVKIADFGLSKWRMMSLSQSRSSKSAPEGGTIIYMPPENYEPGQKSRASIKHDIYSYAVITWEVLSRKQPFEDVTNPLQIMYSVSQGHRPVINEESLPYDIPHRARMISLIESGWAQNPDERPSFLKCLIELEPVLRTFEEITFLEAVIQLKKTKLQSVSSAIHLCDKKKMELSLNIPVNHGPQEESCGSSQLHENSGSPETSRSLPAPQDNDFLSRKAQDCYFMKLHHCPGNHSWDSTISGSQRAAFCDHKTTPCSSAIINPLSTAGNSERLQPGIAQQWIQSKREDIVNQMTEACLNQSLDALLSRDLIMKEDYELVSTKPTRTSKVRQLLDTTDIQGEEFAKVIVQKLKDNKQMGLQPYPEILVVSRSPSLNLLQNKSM", "chain of UniProt O14976 (whole entry, looked up)": "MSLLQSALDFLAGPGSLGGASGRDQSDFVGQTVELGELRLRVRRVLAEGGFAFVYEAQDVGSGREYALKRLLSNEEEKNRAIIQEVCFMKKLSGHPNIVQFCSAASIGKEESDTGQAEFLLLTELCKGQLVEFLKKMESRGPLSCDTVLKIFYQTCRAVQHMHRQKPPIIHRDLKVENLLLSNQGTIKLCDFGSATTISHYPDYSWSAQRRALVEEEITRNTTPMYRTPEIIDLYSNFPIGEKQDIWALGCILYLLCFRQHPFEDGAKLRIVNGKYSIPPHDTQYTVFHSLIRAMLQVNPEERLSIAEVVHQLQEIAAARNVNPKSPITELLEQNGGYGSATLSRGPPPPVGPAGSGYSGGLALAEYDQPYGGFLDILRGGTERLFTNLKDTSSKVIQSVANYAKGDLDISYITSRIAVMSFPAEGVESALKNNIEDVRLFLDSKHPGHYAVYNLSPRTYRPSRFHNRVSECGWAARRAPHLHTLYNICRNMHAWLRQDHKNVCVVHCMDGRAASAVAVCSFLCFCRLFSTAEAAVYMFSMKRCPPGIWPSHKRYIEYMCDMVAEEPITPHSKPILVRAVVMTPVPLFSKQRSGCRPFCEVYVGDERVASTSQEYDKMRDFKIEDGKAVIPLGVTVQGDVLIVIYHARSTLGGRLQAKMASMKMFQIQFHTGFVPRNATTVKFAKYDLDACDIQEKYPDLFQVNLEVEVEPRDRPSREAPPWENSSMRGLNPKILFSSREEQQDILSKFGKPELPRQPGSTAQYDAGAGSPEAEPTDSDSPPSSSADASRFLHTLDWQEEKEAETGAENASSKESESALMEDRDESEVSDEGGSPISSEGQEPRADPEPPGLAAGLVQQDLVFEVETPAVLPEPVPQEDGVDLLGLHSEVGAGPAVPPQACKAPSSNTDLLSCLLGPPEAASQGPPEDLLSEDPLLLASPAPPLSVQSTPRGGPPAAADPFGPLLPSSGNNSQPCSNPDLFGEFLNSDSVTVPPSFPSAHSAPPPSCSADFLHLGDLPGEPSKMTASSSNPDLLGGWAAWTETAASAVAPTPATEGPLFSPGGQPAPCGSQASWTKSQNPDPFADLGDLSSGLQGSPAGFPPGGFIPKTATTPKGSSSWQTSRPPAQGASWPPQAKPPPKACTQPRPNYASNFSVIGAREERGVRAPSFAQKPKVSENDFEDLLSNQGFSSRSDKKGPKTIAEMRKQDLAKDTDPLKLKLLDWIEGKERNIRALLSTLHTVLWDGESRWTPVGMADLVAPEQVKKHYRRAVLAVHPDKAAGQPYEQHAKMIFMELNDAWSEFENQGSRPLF", "chain of UniProt Q8IZL9 (whole entry, looked up)": "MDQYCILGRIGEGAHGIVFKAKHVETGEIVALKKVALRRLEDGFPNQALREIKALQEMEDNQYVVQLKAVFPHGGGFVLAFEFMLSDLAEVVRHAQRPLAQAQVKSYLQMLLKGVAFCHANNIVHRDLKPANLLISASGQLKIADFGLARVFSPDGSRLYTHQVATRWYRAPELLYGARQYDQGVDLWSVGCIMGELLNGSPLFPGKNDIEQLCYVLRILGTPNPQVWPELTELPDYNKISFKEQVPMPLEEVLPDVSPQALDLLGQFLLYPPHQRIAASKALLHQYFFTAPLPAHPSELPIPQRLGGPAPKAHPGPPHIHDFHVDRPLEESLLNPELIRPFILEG"}
{"data": "Sample 1", "SMILES": "C[C@@H]1CN(c2ccc(-c3cc(C(=O)NCCOCCOCCOCCOCCOCCOCCNC(=O)/C=C/c4[nH]cc(C(=O)N[C@@H](CC(N)=O)c5ccc(F)c(Cl)c5)c4-c4ccc(Cl)cc4F)ccc3F)cc2NC(=O)c2ccc(F)cc2C(F)(F)F)C[C@H](C)N1C", "effect on": "thermal unfolding", "method": "differential scanning fluorimetry", "concentration": "5.5 µM", "direction": "higher = more unfolded", "WDR5": "WD repeat-containing protein 5 (WDR5, Homo sapiens, UniProt P61964)", "DCAF1": "DDB1- and CUL4-associated factor 1 (DCAF1, Homo sapiens, UniProt Q9Y4B6)", "chain of UniProt Q9Y4B6 (whole entry, looked up)": "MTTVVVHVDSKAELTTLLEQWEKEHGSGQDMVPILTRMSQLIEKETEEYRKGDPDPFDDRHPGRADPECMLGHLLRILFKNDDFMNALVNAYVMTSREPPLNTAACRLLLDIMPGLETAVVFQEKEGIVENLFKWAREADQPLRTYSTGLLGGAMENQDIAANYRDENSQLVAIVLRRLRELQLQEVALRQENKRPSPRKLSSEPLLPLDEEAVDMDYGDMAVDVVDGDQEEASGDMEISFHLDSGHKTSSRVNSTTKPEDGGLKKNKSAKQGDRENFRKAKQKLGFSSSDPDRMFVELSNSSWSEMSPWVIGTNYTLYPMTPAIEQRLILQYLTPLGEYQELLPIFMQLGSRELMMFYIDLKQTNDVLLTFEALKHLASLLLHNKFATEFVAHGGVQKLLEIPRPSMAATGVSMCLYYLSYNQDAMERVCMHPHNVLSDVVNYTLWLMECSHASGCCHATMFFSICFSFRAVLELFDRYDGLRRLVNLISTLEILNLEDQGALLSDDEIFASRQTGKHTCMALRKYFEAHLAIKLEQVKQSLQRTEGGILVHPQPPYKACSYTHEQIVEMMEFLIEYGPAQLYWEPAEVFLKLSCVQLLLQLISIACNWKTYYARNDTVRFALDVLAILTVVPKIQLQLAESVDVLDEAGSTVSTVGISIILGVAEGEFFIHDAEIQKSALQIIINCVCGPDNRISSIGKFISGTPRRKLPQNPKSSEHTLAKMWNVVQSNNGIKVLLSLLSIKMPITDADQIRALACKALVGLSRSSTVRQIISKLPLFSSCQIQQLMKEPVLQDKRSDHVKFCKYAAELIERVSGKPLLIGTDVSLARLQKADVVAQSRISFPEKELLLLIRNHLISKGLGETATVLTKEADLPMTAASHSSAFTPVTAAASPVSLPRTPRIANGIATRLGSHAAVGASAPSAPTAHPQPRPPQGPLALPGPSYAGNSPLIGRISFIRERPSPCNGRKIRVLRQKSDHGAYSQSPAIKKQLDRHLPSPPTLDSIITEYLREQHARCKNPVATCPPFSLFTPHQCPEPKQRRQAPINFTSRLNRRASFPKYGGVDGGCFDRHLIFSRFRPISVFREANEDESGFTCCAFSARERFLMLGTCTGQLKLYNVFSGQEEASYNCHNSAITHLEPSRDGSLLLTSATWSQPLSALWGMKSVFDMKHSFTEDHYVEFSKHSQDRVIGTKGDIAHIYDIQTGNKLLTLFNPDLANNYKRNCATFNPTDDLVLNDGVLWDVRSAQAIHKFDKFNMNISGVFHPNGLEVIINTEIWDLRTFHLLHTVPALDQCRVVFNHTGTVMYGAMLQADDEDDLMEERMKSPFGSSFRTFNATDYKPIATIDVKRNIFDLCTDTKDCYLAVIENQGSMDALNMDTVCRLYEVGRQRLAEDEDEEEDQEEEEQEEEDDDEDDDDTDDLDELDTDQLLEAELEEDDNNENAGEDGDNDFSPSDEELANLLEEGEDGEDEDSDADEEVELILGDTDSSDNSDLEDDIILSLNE"}
{"target": "WDR5", "conditions": "94.01 °C", "SYPRO Orange fluorescence": "49400 a.u."}
{"target": "DCAF1", "conditions": "92.61 °C", "SYPRO Orange fluorescence": "30400 a.u."}
{"target": "WDR5", "conditions": "36 °C", "SYPRO Orange fluorescence": "13900 a.u."}
{"target": "DCAF1", "conditions": "65.41 °C", "SYPRO Orange fluorescence": "53300 a.u."}
{"target": "DCAF1", "conditions": "80.61 °C", "SYPRO Orange fluorescence": "39500 a.u."}
{"target": "DCAF1", "conditions": "86.61 °C", "SYPRO Orange fluorescence": "34500 a.u."}
{"target": "WDR5", "conditions": "43.6 °C", "SYPRO Orange fluorescence": "14500 a.u."}
{"data": "Sample 2", "Compound": "COc1cc(-c2nc3ccc(C(=O)NCCCN(C)C)cc3n2C2CCC2)cc(OC)c1OC", "method": "NanoBRET", "concentration": "1 µM"}
{"target": "RIPK2 (Homo sapiens, UniProt O43353)", "target occupancy": "3.07%"}
{"target": "Aurora kinase C (AURKC, Homo sapiens, UniProt Q9UQB9)", "target occupancy": "2.85%"}
{"target": "JAK2 (Homo sapiens, UniProt O60674, V617F)", "target occupancy": "13.7%"}
{"target": "CDK20 (Homo sapiens, UniProt Q8IZL9)", "target occupancy": "-1.04%"}
{"target": "CSNK1A1L (Homo sapiens, UniProt Q8N752)", "target occupancy": "2.72%"}
{"target": "Cyclin-dependent kinase 9, with cyclin K (CDK9, Homo sapiens, UniProt P50750)", "target occupancy": "2.43%"}
{"target": "TNK1 (Homo sapiens, UniProt Q13470)", "target occupancy": "0.17%"}
{"target": "GAK (Homo sapiens, UniProt O14976)", "target occupancy": "1.9%"}
{"target": "HIPK4 (Homo sapiens, UniProt Q8NE63)", "target occupancy": "1.16%"}
{"target": "BTK (Homo sapiens, UniProt Q06187)", "target occupancy": "-1.97%"}
{"data": "Sample 3", "SMILES": "Cc1ncsc1-c1ccc(C(CO)NC(=O)C2CC(O)CN2C(=O)C(C(C)C)n2cc(-c3ccc(COc4c(-c5c(C)c(F)cc6[nH]ncc56)c(C5CC5)cc5c(N6CC7CC6CN7)nc(OC6CCOCC6)nc45)cc3)nn2)cc1 (centres unmarked)", "method": "qRT-PCR", "species": "mouse, PK-59 xenograft", "sample": "tumour", "notes": "unit not given"}
{"assay": "measured: DUSP4", "conditions": "30 mg/kg, 48 h", "how to read": "baseline: vehicle", "mRNA level": "0.089 and 0.109"}
{"assay": "measured: MYC", "conditions": "intravenous, 30 mg/kg, 48 h", "how to read": "baseline: vehicle, same time point", "mRNA level": 0.0101}
{"assay": "measured: ETV4", "conditions": "intravenous, 10 mg/kg, 6 h", "how to read": "baseline: vehicle, same time point", "mRNA level": "0.0126 and 0.0111 and 0.00691"}
{"assay": "measured: DUSP6", "conditions": "30 mg/kg, 6 h", "how to read": "baseline: vehicle", "mRNA level": "0.0757 and 0.076 and 0.055 and 0.0551 and 0.042 and 0.0418"}
{"assay": "measured: DUSP6", "conditions": "30 mg/kg, 48 h", "how to read": "baseline: vehicle", "mRNA level": "0.045 and 0.062 and 0.0615"}
{"assay": "measured: MYC", "conditions": "10 mg/kg, 6 h", "how to read": "baseline: vehicle", "mRNA level": "0.55 and 0.386 and 0.597"}
{"assay": "measured: MYC", "conditions": "30 mg/kg, 48 h", "how to read": "baseline: vehicle", "mRNA level": 0.153}
{"data": "Sample 4", "Compound": "Cc1ccc(O)c(C)c1-c1cnc2[nH]c(-c3cnc(N4CCC(CN5CCN(c6ccc7c(c6F)CN(C6CCC(=O)NC6=O)C7=O)CC5)CC4)nc3)cc2c1C#N (centres unmarked)", "target": "Membrane-associated tyrosine- and threonine-specific cdc2-inhibitory kinase (PKMYT1, Homo sapiens, UniProt Q99640)", "Construct (Q99640 1-499)": "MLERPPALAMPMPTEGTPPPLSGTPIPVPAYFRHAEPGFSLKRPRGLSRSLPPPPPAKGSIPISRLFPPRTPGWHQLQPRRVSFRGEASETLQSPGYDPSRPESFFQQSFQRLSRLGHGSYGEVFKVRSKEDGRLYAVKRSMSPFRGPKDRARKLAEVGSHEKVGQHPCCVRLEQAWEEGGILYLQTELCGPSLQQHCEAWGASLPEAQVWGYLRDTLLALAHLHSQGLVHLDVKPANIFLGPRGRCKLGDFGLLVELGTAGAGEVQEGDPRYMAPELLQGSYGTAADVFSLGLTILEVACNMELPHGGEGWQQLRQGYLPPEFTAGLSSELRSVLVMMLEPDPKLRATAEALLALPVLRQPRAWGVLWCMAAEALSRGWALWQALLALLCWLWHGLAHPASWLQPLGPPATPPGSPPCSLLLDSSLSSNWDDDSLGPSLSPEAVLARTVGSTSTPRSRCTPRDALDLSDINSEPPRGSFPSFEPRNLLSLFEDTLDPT"}
{"assay": "cell-free assay, inhibitor, TR-FRET", "conditions": "460 pM", "inhibition [%]": -3.08}
{"conditions": "0.00412 µM", "inhibition [%]": 46}
{"conditions": "0.000152 µM", "inhibition [%]": -5.38}
{"conditions": "0.01235 µM", "inhibition [%]": 85}
{"conditions": "1 µM", "inhibition [%]": 99.1}
{"assay": "cell-free assay, inhibitor, TR-FRET", "conditions": "1.37 nM", "inhibition [%]": 10.5}
{"assay": "cell-free assay, inhibitor, TR-FRET", "conditions": "0.1111 µM", "inhibition [%]": 98.5}
{"conditions": "0.00137 µM", "inhibition [%]": 14.2}
{"note": "A few entries again (sample 3):"}
{"assay": "measured: DUSP4", "conditions": "30 mg/kg, 48 h", "how to read": "baseline: vehicle", "mRNA level": "0.089 and 0.109"}
{"assay": "measured: MYC", "conditions": "intravenous, 30 mg/kg, 48 h", "how to read": "baseline: vehicle, same time point", "mRNA level": 0.0101}
{"assay": "measured: ETV4", "conditions": "intravenous, 10 mg/kg, 6 h", "how to read": "baseline: vehicle, same time point", "mRNA level": "0.0126 and 0.0111 and 0.00691"}
{"assay": "measured: DUSP6", "conditions": "30 mg/kg, 6 h", "how to read": "baseline: vehicle", "mRNA level": "0.0757 and 0.076 and 0.055 and 0.0551 and 0.042 and 0.0418"}
{"assay": "measured: DUSP6", "conditions": "30 mg/kg, 48 h", "how to read": "baseline: vehicle", "mRNA level": "0.045 and 0.062 and 0.0615"}
